Published values collected from several papers.
Numbers after ± are the reported error.
CASP3: Caspase-3 (CASP3, Homo sapiens, UniProt P42574)
Sequence of UniProt P42574 (whole entry, looked up): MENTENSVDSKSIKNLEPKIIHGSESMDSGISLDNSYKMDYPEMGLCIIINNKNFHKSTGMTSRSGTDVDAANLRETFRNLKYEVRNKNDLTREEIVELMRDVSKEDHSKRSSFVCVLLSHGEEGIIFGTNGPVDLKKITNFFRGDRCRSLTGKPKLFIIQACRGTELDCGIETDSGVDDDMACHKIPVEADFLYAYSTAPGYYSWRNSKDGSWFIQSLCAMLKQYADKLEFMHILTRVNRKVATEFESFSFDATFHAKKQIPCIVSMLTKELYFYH
CHRM3: Muscarinic acetylcholine receptor M3 (CHRM3, Homo sapiens, UniProt P20309)
Sequence of UniProt P20309 (whole entry, looked up): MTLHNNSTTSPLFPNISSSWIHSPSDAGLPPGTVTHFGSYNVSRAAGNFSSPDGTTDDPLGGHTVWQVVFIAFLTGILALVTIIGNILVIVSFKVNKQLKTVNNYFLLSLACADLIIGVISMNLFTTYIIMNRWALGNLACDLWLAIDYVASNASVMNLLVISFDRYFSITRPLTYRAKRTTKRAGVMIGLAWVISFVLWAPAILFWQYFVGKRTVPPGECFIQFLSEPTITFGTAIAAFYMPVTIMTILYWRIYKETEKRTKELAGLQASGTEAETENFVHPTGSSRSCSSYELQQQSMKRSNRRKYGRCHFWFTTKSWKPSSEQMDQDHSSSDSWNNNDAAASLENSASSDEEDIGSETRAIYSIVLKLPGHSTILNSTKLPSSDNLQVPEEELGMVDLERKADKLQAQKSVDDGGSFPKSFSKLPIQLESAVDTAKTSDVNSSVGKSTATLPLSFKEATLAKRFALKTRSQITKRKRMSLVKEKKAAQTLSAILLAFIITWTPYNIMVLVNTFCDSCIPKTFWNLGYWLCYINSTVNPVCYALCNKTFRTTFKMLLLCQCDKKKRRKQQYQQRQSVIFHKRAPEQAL
CHRM1: Muscarinic acetylcholine receptor M1 (CHRM1, Homo sapiens, UniProt P11229)
Sequence of UniProt P11229 (whole entry, looked up): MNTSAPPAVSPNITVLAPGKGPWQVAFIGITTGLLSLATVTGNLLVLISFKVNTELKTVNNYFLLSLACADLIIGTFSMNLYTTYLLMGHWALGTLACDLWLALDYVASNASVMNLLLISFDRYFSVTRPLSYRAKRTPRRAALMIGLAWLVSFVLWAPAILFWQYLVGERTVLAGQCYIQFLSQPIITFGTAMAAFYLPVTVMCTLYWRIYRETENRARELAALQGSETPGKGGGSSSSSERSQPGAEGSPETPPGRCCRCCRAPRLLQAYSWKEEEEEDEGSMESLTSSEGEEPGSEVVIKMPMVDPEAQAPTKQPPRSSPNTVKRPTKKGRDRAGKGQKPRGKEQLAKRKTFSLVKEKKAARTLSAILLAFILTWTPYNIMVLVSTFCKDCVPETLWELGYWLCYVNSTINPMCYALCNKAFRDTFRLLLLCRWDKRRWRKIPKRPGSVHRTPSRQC
Sequence of UniProt P08912 (whole entry, looked up): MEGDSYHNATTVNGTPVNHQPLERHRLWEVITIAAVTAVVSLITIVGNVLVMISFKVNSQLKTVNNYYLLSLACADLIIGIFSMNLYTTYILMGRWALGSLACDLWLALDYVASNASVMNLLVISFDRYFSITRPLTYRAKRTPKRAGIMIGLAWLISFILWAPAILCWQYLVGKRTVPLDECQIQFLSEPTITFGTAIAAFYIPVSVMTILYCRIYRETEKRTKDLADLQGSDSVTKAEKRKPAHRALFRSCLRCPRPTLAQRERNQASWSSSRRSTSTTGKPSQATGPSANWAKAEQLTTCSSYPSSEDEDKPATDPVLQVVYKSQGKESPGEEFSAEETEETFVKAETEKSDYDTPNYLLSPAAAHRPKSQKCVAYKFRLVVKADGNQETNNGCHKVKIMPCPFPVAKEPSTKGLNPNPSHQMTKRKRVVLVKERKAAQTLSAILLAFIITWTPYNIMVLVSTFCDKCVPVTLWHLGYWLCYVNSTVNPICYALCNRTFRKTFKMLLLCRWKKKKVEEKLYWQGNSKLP
Sequence of UniProt Q9H227 (whole entry, looked up): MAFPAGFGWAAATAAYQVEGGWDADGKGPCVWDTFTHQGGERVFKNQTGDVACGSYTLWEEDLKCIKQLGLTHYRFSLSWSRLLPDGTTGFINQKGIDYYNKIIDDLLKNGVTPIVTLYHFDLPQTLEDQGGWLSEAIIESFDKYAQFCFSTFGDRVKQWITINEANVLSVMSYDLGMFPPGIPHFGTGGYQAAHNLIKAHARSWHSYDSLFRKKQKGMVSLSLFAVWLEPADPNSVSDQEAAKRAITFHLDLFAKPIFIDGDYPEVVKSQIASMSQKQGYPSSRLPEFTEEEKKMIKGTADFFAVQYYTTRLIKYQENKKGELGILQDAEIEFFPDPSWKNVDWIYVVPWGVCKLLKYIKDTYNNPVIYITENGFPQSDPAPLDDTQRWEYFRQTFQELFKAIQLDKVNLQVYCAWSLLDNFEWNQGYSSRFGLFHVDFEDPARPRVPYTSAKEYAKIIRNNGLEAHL
Sequence of UniProt P61169 (whole entry, looked up): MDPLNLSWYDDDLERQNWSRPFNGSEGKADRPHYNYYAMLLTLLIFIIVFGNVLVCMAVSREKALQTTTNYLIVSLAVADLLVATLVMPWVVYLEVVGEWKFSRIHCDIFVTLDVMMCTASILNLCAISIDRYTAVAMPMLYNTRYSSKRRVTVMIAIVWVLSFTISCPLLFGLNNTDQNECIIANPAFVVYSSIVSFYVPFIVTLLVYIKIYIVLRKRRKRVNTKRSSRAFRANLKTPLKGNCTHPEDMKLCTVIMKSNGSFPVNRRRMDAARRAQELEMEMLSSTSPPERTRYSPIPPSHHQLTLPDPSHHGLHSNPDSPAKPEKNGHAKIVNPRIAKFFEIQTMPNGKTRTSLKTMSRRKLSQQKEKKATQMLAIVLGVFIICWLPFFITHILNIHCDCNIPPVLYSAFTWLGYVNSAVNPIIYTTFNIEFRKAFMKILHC
Sequence of UniProt Q12908 (whole entry, looked up): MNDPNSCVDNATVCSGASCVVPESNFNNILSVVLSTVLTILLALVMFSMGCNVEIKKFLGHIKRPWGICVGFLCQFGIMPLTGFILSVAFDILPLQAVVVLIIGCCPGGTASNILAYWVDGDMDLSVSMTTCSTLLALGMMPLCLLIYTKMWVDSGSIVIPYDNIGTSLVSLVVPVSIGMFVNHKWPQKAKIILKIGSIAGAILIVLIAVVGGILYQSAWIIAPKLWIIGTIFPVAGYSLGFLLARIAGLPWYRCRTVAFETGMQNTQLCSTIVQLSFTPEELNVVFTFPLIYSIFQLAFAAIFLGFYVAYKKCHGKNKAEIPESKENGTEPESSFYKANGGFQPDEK
Sequence of UniProt P53341 (whole entry, looked up): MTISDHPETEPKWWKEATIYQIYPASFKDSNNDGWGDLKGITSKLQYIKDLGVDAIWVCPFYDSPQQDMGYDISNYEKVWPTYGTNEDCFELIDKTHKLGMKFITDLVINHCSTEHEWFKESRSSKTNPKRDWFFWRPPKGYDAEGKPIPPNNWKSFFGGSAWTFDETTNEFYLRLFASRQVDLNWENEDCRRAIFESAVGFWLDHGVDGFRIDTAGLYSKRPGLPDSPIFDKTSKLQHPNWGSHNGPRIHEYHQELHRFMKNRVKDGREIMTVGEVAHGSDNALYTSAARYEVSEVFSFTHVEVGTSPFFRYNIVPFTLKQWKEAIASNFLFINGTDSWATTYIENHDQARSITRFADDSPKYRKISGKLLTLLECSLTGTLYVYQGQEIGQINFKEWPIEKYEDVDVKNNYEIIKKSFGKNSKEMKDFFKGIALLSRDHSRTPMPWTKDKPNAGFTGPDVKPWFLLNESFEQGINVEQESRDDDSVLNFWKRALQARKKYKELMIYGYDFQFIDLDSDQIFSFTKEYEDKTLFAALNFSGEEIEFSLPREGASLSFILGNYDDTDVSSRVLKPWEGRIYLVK
Sequence of UniProt P0DMS8 (whole entry, looked up): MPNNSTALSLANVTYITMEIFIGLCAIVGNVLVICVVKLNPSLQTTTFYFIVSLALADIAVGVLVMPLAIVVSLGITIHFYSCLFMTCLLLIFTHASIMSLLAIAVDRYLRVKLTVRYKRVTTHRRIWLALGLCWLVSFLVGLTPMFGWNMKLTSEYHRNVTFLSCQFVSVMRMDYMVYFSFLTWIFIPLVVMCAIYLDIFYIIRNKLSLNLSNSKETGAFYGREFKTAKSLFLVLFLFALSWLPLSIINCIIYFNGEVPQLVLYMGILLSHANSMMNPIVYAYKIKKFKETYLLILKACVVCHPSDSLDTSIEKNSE
Sequence of UniProt Q9R0C9 (whole entry, looked up): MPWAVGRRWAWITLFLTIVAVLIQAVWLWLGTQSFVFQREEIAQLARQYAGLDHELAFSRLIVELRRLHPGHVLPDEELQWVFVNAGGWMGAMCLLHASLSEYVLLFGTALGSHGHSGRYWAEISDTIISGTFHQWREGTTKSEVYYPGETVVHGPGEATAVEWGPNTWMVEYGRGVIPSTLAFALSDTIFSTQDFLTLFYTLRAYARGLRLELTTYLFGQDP
Sequence of UniProt Q01726 (whole entry, looked up): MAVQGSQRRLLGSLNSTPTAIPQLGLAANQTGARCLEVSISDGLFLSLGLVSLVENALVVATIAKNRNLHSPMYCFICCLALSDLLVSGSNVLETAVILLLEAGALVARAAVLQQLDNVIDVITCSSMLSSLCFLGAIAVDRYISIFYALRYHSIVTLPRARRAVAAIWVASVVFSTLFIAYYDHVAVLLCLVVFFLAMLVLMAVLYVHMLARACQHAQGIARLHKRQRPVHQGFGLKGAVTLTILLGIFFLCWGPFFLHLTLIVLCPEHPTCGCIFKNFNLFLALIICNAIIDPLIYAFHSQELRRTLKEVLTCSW

OC[C@H]1[C@@H](O)[C@H](O)[C@@H](O)CN1CCCCCOCC12CC3CC(CC(C3)C1)C2
Ki (Cytosolic beta-glucosidase (GBA3, Homo sapiens, UniProt Q9H227); enzyme activity, inhibitor): 66.1 µM

CC[C@H](C)[C@H](NC(=O)[C@H](CCC(N)=O)NC(=O)[C@H](CCC(=O)O)NC(=O)[C@H](CCC(=O)O)NC(=O)[C@H](CCCCN)NC(=O)[C@@H]1CCCN1C(=O)[C@H](CC(C)C)NC(=O)[C@H](CO)NC(=O)[C@H](CO)NC(=O)[C@@H](N)CC(C)C)C(=O)NCC(=O)N[C@@H](CCCCN)C(=O)N[C@@H](CO)C(=O)N[C@@H](CO)C(=O)N[C@H](C(=O)N[C@@H](CCCNC(=N)N)C(=O)NCC(=O)N[C@@H](CCCNC(=N)N)C(=O)N[C@@H](CCCCN)C(=O)N[C@@H](CO)C(=O)N[C@@H](CO)C(=O)N[C@@H](CCCNC(=N)N)C(=O)N[C@@H](CCCNC(=N)N)C(=O)N[C@@H](CCCCN)C(=O)N[C@@H](CCCCN)C(N)=O)[C@@H](C)O
Ki (Melanocyte-stimulating hormone receptor (MC1R, Homo sapiens, UniProt Q01726); HEK-293T transfected; 2 h, 37 °C, with: Eu-NDP-MSH): > 5 µM

C[C@H](CCC(=O)N[C@@H](CCC(=O)Nc1cncc(Br)c1)C(=O)O)[C@H]1CC[C@H]2[C@@H]3[C@H](O)C[C@@H]4C[C@H](O)CC[C@]4(C)[C@H]3CC[C@]12C
Ki (Ileal sodium/bile acid cotransporter (SLC10A2, Homo sapiens, UniProt Q12908); taurocholate uptake, inhibitor; ASBT-MDCK; 10 min, with: taurocholate 2.5 µM): 21.1 µM

O=C1Nc2ccccc2N(C(=O)CN2CCC(CCCCN3CCC(N4CCC(n5c(=O)[nH]c6ccccc65)CC4)CC3)CC2)c2ccccc21
Ki (Muscarinic acetylcholine receptor M5 (CHRM5, Homo sapiens, UniProt P08912); ligand displacement, radioligand): 0.0813 µM

CC[C@H](C)[C@H](NC(C)=O)C(=O)N[C@H](C(=O)N[C@H](C(=O)N[C@@H](CN)C(=O)N[C@H](C=O)CC(=O)O)C(C)C)[C@@H](C)O
Ki (CASP3; enzyme activity, inhibitor, fluorescence; pH 7): 4.79 µM

NCc1cc(C(=O)NCCN2CCC(OC(=O)C(c3ccccc3)c3ccccc3)CC2)cc(C(=O)NCCN2CCN(CCCCC3CCN(CC(=O)N4c5ccccc5NC(=O)c5ccccc54)CC3)CC2)c1
Ki (CHRM3; ligand displacement, radioligand): 0.0631 µM

C/C(=N\OCCCN1CCCCC1)c1cccc(C(F)(F)F)c1
Ki (Sigma non-opioid intracellular receptor 1 (Sigmar1, Rattus norvegicus, UniProt Q9R0C9); binding): 0.0676 ± 0.00623 µM

CC(=O)N[C@H](C(=O)N[C@@H](CC(=O)O)C(=O)N[C@H](CCN)C(=O)N[C@@H](C)C(=O)N[C@H](C=O)CC(=O)O)C(C)C
Ki (CASP3; enzyme activity, inhibitor, fluorescence; pH 7): 19.5 µM

Clc1cc(OCCCN2CCN(c3cccc4sccc34)CC2)ccc1CN1CCCCC1
Ki (D(2) dopamine receptor (Drd2, Rattus norvegicus, UniProt P61169); cell-free assay, radioligand): 0.155 µM

Nc1nc2c(CNCCCP(=O)(O)O)c[nH]c2c(=O)[nH]1
Ki (Hypoxanthine-guanine phosphoribosyltransferase (Trypanosoma cruzi, UniProt Q4DGA3)): 3.63 ± 0.32 µM

C=C1C(=O)O[C@@H]2[C@H]3C(CO)=CC(=O)C3=C(C)C[C@H](O)[C@@H]12
Ki (Alpha-glucosidase MAL12 (MAL12, Saccharomyces cerevisiae S288c, UniProt P53341); enzyme activity, inhibitor): 87.6 µM

NCc1cc(C(=O)NCCN2CCN(CCCCC3CCN(CCCN4C(=O)CCc5ccccc54)CC3)CC2)cc(C(=O)NCCN2CCN(CCCCC3CCN(CC(=O)N4c5ccccc5NC(=O)c5ccccc54)CC3)CC2)c1
Ki (CHRM3; ligand displacement, radioligand): 0.0132 µM

CCCCCCOc1ccc(C(=O)OCCN2CC=CCC2)cc1
Ki (CHRM1; ligand displacement, radioligand; cell membranes): 4.27 µM

CN1CCC=C(c2nsnc2OCCCCCNC(=O)CCCNC(=O)c2cc(CN)cc(C(=O)NCCN3CCN(CCCCC4CCN(CC(=O)N5c6ccccc6NC(=O)c6ccccc65)CC4)CC3)c2)C1
Ki (CHRM1; ligand displacement, radioligand): 0.00158 µM

Nc1ncnc2c1ncn2[C@@H]1O[C@H](C(=O)NCCCF)[C@@H](O)[C@H]1O
Ki (Adenosine receptor A3 (ADORA3, Homo sapiens, UniProt P0DMS8); ligand displacement, radioligand; cell membranes): 0.15 µM

For quick reference, copied from above:
NCc1cc(C(=O)NCCN2CCN(CCCCC3CCN(CCCN4C(=O)CCc5ccccc54)CC3)CC2)cc(C(=O)NCCN2CCN(CCCCC3CCN(CC(=O)N4c5ccccc5NC(=O)c5ccccc54)CC3)CC2)c1
Ki (CHRM3; ligand displacement, radioligand): 0.0132 µM
